# Measurements gathered from unrelated publications.
# Parts stem from different laboratories: compare values within a part only. Positions count from the first letter of the parent shown.

# Set 1
# Target: Histone acetyltransferase KAT6A, winged helix 2, GST fusion (KAT6A, Homo sapiens, UniProt Q92794, residues 85-181)
# Technique: protein binding microarray
# Molecule type: double-stranded DNA, one strand shown
# Matrix: in vitro
# Concentration: not given
# Setting: 8-mer, flanks averaged, mean of 2 arrays, mostly near background
# Reference: not given
# Reading: higher = stronger binding
# Residues (chain): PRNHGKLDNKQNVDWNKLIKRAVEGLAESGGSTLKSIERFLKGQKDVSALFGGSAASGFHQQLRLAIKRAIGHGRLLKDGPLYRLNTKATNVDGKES
Strand,E-score
CGTGATTA,-0.00972
GCCCAAAC,0.173
AGACCCAG,-0.0428
GACCAGTC,-0.184
AACAGAGC,-4.5e-05
CCGGTAAC,0
ACATGAAC,-0.168
CAATTAGC,0.0906
CGTGAAAC,0.00628
CAGAAATA,-0.126
ACAGCCTG,0.0192
CCGCACGA,0.112
ACTATCGC,-0.00514
CATGACGG,0.00992
ATCTGTGC,-0.127
CCAATCCC,-0.0999
GGAGATCC,0.00251
CTATAGGC,-0.0384
ACGGCAGA,0.169
CGGTGGCC,0.17
ATTATTGC,-0.00996
AGACTCAA,-0.0415
GGACGCCC,0.0438
CTCATTTC,0.0355
CCAGTAAA,-0.0159

# Set 2
# Target: Centromere-binding protein 1, full length, N-terminal tag (CBF1, Saccharomyces cerevisiae, UniProt P17106, residues 1-351)
# Chain of UniProt P17106 (whole entry, looked up): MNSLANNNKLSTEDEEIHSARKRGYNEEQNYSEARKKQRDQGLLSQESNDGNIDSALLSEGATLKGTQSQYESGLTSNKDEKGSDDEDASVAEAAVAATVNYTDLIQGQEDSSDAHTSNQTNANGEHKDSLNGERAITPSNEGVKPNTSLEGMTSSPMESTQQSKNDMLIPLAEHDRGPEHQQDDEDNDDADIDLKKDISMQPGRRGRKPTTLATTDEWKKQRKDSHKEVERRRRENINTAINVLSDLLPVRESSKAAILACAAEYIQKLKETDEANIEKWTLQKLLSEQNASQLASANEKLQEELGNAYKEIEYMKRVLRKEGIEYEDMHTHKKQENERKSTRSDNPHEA
# Technique: protein-binding microarray
# Molecule type: double-stranded DNA, one strand shown
# Matrix: in vitro
# Concentration: 0.8 µM
# Setting: whole 60-bp probe, no competitor
# Reading: higher = stronger binding
# Constant ends, left off below: … GTCTTGATTCGCTTGACGCTGCTG
Strand,fluorescence intensity
CTATTTCCGCAGTATCCATCATCAGTTGGAACGTTC,509 a.u.
TGTACGAAGCTATCAAGCGTGCTTATAGTAGTTAGG,512 a.u.
GAATATGTTTATTTTTACGTGGGTTATAAAGACTAG,523 a.u.
CTAGTCGCTGATAAAATCGTGATTCTCGATCAATTC,535 a.u.
TGTACGAAGCTATGTCACATCGTTATAGTAGTTAGG,561 a.u.
GAAGATCGTGACACTGCTGATGGTTTTGTCATTTAG,620 a.u.
CTACCTCAAAAGGATATCATGAGGTGATCTAGGTTC,553 a.u.
CCTAACTACTATAACGTGCGGATATAGCTTCGTACA,615 a.u.
GAAATGCAATTCAGTCACGTTCCACACAGTTTGTAG,2400 a.u.
CCTAACTACTATAAACAGGTGAGATAGCTTCGTACA,553 a.u.
TGTACGAAGCTATATTCCGTGACTATAGTAGTTAGG,582 a.u.
GAAAAAATAAAGAACTTCGTGCAGTACTTATACTAG,500 a.u.
GAAATTAGCGGGGATCAGGTGCCGGTAGTATATTAG,992 a.u.
CTAAGCTTTGTTCACATGGTGAAAACAATAGCGTTC,802 a.u.
CTAATAAAAACAAGCAAGGTGATCGTCAAACTGTTC,555 a.u.
CTAACTCCGGCTCTTTACGTGCCACAATTATTATTC,538 a.u.
GAACCCGTTTAGAGGAAGGTGATGACTCGACTCTAG,492 a.u.
GAACTACATATATTTCGTGCGCTTTCAAAAATATAG,496 a.u.
GAAGTCTTAATGAGTCACGGGAGGTCAAGATGCTAG,1600 a.u.
TGTACGAAGCTATTTCACGTTTCTATAGTAGTTAGG,573 a.u.
CTATTTGTTCATGAGGCGGTGACGTAAAATTCGTTC,607 a.u.
CTAGTCTTATTCCCTCACCCCGCGTCCTTCTTCTTC,497 a.u.
GAATTGGTAGATGGTCACACAGCACGGTGTTTTTAG,573 a.u.
CTACGCAGCTGCTATCATGTGTCTATTTGAGATTTC,838 a.u.

# Set 3
# Target: CCND1, cyclin fold, Cln2 fusion (human)
# Technique: yeast growth competition, sequencing
# Matrix: yeast
# Setting: weak parent motif
# Reference: not given
# Reading: higher = stronger binding
# Starting sequence: WEE1 docking peptide (human); HKTFRKLRLFDTP; partner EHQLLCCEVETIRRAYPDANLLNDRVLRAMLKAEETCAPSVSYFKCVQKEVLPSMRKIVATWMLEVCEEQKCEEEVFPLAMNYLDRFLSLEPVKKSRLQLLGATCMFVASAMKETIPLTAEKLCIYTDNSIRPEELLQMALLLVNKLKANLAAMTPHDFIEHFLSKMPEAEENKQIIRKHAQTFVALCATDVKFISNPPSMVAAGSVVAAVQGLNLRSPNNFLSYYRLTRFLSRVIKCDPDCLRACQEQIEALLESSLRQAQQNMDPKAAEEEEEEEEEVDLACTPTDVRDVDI
Change,normalised enrichment score
T3D,-0.0596
F10S,-0.647
P13I,0.0696
P13L,0.0566
D11F,0.585
F10E,-0.424
F4G,0.207
F10I,-0.161
T12D,0.675
H1K,-0.466
K2N,0.624
T3L,-0.00926
P13V,0.345
F10K,-0.868
K6F,-0.971
D11W,0.183

# Set 4
# Target: RING finger protein unkempt homolog, zinc fingers 1-6, GST-SBP tag (UNK, Homo sapiens, UniProt Q9C0B0, residues 30-357)
# Technique: RNA Bind-n-Seq
# Molecule type: RNA
# Matrix: in vitro
# Concentration: not given
# Setting: RNA with constant flanks, human and mouse sites, ends assumed
# Reference: input RNA pool
# Reading: higher = stronger binding
# Constant ends, left off below: GGGAGUUCUACAGUCCGACGAUC … CAACAGAGGAUUGAGCAUCA
# Residues (chain): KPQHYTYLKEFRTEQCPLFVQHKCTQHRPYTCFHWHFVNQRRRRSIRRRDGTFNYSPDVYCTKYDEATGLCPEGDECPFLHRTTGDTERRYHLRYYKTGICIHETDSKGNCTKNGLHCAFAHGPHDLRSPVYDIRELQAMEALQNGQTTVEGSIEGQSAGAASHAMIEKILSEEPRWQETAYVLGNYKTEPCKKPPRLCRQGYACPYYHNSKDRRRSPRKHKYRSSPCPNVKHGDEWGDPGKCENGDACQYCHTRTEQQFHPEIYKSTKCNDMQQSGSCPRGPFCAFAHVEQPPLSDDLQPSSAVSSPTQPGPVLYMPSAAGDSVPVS
Strand,bound/input enrichment [ratio]
CAGCAGCCACAGCCACUGAUGUCACAGCAGUUUGCACAGCCUCCAGGAGCUACCAAUAUGAUAGGCUACAUGGGGCAGACUGCUUACCAGUACCCUCCCCCUCCCCCUCCCCCUCCUCCA,0.333
CCAAGCUGCUGUACUUCAAAGGAAACAGAUCUAGCACACUGCUGCACCCCUGCUUCCACACUCCACACUUCACCCCGCUGCUUUUCUCUGACCCGCCCCUGGCCUUGUAAGACUCACGUA,0.22
GAAGACCUGAAAAAGCUGCAUGAUGAAAAAAUCGAGUCAUUGAGAGCUGAAUUUCAGUGCUUAGAACAAAAUCACCUGAAGGAAUUAGAGGACACACUGCACAUCAGGCACACACAGGAG,0.629
UCCGUCCGUCGGCUUCUCGUCUUGCUCUCUCUGGUCCCUCCGGAGGAGGCCGCCGCGCGUCUCCCGGGGAAGCAUGGCGAUGAAAGCGGUGUGCGUGCUGAAGGGCGACGGUCCGGUGCA,0.0714
AAGAAUGAGAUGGAGAUACAAAUGAAAUCAAAAAAGCUUCCAAUUACGCGAAAGUUUUAUGCCUUUUAUCAUGCACCAAUUGUAAAAUUCUGGUUUAACACGUUGGCAUAUUUAGGAUUU,0.598
GCAAGAUUUCUGACAAUGUGCAAUAGACACUUUGGCAGCGUUAUUGCACAAACUAUUCGGACUCAAAAGACAGAUCAGUUUCCACUUUUCCUGAUUAUCAUGGGAAAGCGAUCAUCUAAU,0.101
UCAGGUGGCUAGAGCUGGGGACCUCAGACGACCAGCUUGCUUAUUUCUUUUUUUUUUCUCUUUUUUCUGUCUCUCCCGGCUGCUGUCCCUGCAUGAGAGAACUCCCACCUUCUGCUCUGG,1.48
GAUGGAGACGAAGGCCCCAACACCGGGGGGAUGGGAGCCUACUGCCCAGCACCUCAGGUUUCUAAGGACUUGUUAGUAAAAAUUAAGAACACUAUUCUUCAGAGAGCAGUAGACGGCAUG,1.36
CAGGUUUCAUCAAUGGGAAUAACACCCUUUUUUGUGGAAAAUGUCAGUGAACUACAAUUGUGUGCCAUUAAGUUAGUCACUGCAGUAUUUUCAAGAUAUGAAAAGCAUAGGCAGUUAAUA,0.561
AUGAUUGACGUGCAGAACAGAGCCUACUUCCAGCAGCACGGCUGUACCUUCACCGCCGUCAUCCCUACCAAUGUCUUUGGGCCUUAUGACAACUUCAACAUCGAAGAUGGCCACGUGCUA,0.0737
GCAGAGAUGGAGAAUAUUAAGGCGAUUGCCACAGUCUCUGAGAACACCAAGCAAGAAGCUAUAGAUGAAGUGAAAAGACAGUGGAGAGAAGAAGUUGCUUCACUUCAGGCUGUUAUGAAA,0.188

# Set 5
# Target: Ras GTPase-activating protein-binding protein 1, C-terminal RGG region (G3BP1, Homo sapiens, UniProt Q13283)
# Chain of UniProt Q13283 (whole entry, looked up): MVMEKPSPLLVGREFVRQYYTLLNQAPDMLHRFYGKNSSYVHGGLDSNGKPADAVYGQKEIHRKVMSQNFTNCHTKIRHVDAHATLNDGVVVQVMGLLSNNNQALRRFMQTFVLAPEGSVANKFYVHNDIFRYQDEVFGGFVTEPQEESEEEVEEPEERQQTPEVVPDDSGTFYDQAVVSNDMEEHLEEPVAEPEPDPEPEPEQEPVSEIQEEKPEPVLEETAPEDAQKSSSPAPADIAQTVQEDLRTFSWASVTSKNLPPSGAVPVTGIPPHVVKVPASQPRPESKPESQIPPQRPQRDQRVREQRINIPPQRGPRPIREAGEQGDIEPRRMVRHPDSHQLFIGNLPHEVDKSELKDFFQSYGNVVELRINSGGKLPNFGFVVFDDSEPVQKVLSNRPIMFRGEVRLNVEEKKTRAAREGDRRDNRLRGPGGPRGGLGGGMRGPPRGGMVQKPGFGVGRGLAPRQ
# Technique: RNA Bind-n-Seq
# Molecule type: RNA
# Matrix: in vitro
# Concentration: 1 µM
# Setting: whole 134-nt RNA, ends assumed
# Together with: 150 mM KCl
# Reference: input library
# Reading: higher = stronger binding
# Constant ends, left off below: GGGAGUUCUACAGUCCGACGAUC … UGGAAUUCUCGGGUGUCAAGG
Strand,log2 enrichment
CAAGUCCUGUGCUACACAUCGUAUGUACCGAAUCGGGGCCCGGGCCCGGCCCGGGAAAGUAUUAUGUUACGCCGUUCGGAUCUGCACUUC,-1.88
CUGUGCUACACAUCGUAUGUACCGAAUCGGGGAAAAAAAGGAAAAAAAGGGAAAAAAAGGGAAAGUAUUAUGUUACGCCGUUCGGAUCUG,-1.72
CGGCCCUGGUGGCAUGCGGGGAGGAAGAGGUGGCCUCAUGGAUCGUGGUGGUCCCGGUGGAAUGUUCAGAGGUGGCCGUGGUGGAGACAG,2.22
AAGUCCUGUGCUACACAUCGUAUGUACCGAAUCGGGAAAGGGUUUUUUUGGGAGGGAAAGUAUUAUGUUACGCCGUUCGGAUCUGCACUU,0.637
UCCUGUGCUACACAUCGUAUGUACCGAAUCGGUUUUUUUGGUUUUUUUGGUUUUUUUGGAAAGUAUUAUGUUACGCCGUUCGGAUCUGCA,-0.724
UUGAUGUUAGUAAAUUUGGUGUAAUACGUGGGGCUUCCAUAUUUCAAAGUGGAAGCUUUCUUCUCUGAAGUCGAUAUAUGGUUUUGAAUU,-1.26
CACAGACAACACGCACCCACACAGACACAGAGGGAAGGGGUUGGGAUGGGGACAGGGUGCACAGCAGGGCGGGGUAGGACCAAAGCCCCU,-0.255
AGUCCUGUGCUACACAUCGUAUGUACCGAAUCGGGCCCCGGGGCCCCGGCCCCGGGGAAAGUAUUAUGUUACGCCGUUCGGAUCUGCACU,-2.91
UCCUUUGUGUUUACAAAAGCACUGACCCUUUACCUUUUCUUUAGCAAGAAGAAUGGAAUGAACAUAAUGCCAAAAUAAUUAAAUAUAUAA,-0.39
UCAAGUCCUGUGCUACACAUCGUAUGUACCGAAUCGGUUUUUUUGGAGGAAAGGAAAGUAUUAUGUUACGCCGUUCGGAUCUGCACUUCC,-1.18
AGUCCUGUGCUACACAUCGUAUGUACCGAAUCGGUUUUUUUGGUUUUUGGUUUUUGGAAAGUAUUAUGUUACGCCGUUCGGAUCUGCACU,-1.68
GUAGCUGCUCCAGUGGGCCCAGUGGGCCCCACUCCUACAGUUUUGCCCAUGGGAGCCCCUGUUCCCCGGCCUCGUGGUCCCCCACCGCCC,0.36
ACCAUGCAGGUGGGCAUCUUUGGGAAGUGGGGCAAGGGGGGGAUAGGGAGGGGGGUAACACUUUGGGAACAGGUGGUAAAAGGUCGUUUC,-0.753
GCAGGAAGUAAAAACAAAUGGAAAUGCUUCGGAUAGUGGCAGGGGUGGGGGUUGCUAAGGAAAGGGUGGGAUGGGAGUGGGUAAAGAUUU,0.554

# Mixed results
Molecule,target,test,test system,setting,how to read,quantity,value
"PhoQ, residues 284 288 289 292 302 303 NSMLDC","PhoP, residues 12 14 15 18 19 TQAIL (Escherichia coli, UniProt P23836)","Sort-seq, measured: YFP reporter",E. coli,"PhoQ-PhoP variant library, together with: 10 µM Mg2+","reference: high Mg2+ state, higher = stronger signaling",fold induction,20.3

# For quick reference, copied from above (set 3):
Change,normalised enrichment score
F4G,0.207
F10I,-0.161
T12D,0.675
H1K,-0.466
K2N,0.624
T3L,-0.00926
